Experimental data pooled from the literature.
Each line is one published result; not all experiments were run side by side.
Target: Rho-associated protein kinase 2 (ROCK2, Homo sapiens, UniProt O75116)
Sequence of UniProt O75116 (whole entry, looked up): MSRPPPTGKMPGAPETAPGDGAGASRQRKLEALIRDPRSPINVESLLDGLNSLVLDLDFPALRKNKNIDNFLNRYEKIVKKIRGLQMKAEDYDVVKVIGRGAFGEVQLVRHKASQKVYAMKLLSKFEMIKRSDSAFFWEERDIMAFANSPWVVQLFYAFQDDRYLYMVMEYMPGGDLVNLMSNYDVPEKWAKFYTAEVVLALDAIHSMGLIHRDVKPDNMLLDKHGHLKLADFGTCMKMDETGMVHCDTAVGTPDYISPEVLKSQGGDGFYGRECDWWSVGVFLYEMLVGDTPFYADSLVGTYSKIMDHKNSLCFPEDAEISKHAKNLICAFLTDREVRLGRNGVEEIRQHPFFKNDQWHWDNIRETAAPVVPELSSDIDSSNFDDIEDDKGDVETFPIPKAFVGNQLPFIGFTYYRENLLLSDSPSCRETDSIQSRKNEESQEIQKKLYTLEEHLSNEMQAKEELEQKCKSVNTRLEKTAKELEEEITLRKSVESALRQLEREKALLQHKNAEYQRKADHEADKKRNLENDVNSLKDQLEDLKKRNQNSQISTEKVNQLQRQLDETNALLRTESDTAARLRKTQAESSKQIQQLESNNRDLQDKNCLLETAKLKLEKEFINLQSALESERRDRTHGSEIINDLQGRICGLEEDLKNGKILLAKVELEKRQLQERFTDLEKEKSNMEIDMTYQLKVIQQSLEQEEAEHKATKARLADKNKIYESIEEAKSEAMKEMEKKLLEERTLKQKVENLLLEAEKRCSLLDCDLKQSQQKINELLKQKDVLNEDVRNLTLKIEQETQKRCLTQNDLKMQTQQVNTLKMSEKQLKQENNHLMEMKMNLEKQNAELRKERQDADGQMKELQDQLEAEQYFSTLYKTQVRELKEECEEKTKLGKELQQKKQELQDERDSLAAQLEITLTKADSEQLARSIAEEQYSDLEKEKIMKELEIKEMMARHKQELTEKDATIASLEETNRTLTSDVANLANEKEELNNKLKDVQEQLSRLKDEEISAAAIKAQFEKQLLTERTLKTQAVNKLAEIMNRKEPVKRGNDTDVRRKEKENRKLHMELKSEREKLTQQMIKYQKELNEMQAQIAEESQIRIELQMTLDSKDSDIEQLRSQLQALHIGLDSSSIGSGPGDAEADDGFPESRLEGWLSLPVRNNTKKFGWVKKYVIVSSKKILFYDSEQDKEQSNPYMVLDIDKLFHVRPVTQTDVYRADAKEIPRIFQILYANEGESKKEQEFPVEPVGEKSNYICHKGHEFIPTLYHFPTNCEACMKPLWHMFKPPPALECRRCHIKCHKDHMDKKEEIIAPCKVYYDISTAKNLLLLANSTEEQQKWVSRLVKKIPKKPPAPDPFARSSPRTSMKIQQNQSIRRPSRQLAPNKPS

SMILES	test	conditions	scale	measurement	value
C[C@H](NCc1ccc(-c2ccc(C(F)(F)F)cc2)cc1)C(N)=O	cell-free assay, competition with immobilised ligand	1 µM	–	inhibition	0%
CCOC(=O)[C@@H]1Cc2c(cc([N+](=O)[O-])cc2[N+](=O)[O-])[C@H](O)[C@]12C(=O)Nc1ccc(Br)cc12	binding, competition with immobilised ligand	0.1 µM	–	remaining binding	24%
O=C1NC(=O)c2c1c1cc(F)c[n+]3c1c1c2c2cc(O)ccc2[n]1[Ru-4]312([N]=C=S)[S+]3CC[S+]1CC[S+]2CC3 (centres unmarked)	enzyme activity	100 nM, human enzyme, with: 10 µM ATP	baseline: untreated	remaining activity	91%
C[C@@H]1COCCN1c1nc(NCc2cccnc2C(F)(F)F)c2cccnc2n1	inhibitor	–	–	IC50	> 100 µM
Nc1ccc(/C=C/C(=O)N2CCc3c(oc4c(-c5ccc(F)cc5)cc(-c5ccc(C(=O)N6CCC(F)(F)CC6)cn5)cc34)C2)cn1	binding, competition with immobilised ligand	1 µM	–	remaining binding	88%
CC(C)[C@H]1NC(=O)C[C@H]2/C=C/CCSSC[C@@H](NC1=O)C(=O)N[C@H](Cc1cccc3ccccc13)C(=O)NCC(=O)O2	enzyme activity, inhibitor	10 µM	–	inhibition	-2.7%
O=C(N[C@@H]1c2ccccc2C[C@H]1N1CCCC1)c1ccc(-c2ccnc3[nH]ccc23)nc1	binding, competition with immobilised ligand	3 µM	–	remaining binding	0%
CS(C)(=O)=Nc1ccc(-c2ccc(-c3nc4cc(O[C@@H]5CO[C@H]6[C@@H]5OC[C@H]6O)[nH]c4cc3F)cc2)cc1	enzyme activity, inhibitor	10 µM	–	inhibition	13%

Excerpt of the above:
SMILES	test	conditions	scale	measurement	value
C[C@@H]1COCCN1c1nc(NCc2cccnc2C(F)(F)F)c2cccnc2n1	inhibitor	–	–	IC50	> 100 µM
